Results pooled from the literature.
Numbered parts are unrelated; each lists some results of a single study. Positions count from the first letter of the parent shown.

Block 1 — technique: RNA Bind-n-Seq; molecule type: RNA; matrix: in vitro; concentration: 200 nM; notes: whole 134-nt RNA, ends assumed; with: 150 mM KCl; reference: input library; reading: higher = stronger binding
Target: Ras GTPase-activating protein-binding protein 1, full length (G3BP1, Homo sapiens, UniProt Q13283)
Chain of UniProt Q13283 (whole entry, looked up): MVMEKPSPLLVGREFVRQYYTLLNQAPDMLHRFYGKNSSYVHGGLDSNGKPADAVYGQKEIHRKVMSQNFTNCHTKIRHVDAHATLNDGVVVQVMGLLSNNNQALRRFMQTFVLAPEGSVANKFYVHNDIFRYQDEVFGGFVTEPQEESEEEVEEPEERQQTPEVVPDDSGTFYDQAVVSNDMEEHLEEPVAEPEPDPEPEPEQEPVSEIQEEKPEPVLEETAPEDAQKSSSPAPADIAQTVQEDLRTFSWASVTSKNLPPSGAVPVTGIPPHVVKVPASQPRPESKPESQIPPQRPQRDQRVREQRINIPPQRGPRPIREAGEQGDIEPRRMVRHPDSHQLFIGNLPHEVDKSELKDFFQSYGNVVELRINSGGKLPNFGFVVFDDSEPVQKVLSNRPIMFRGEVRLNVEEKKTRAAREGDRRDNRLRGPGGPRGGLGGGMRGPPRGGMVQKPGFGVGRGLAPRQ
Constant ends, left off below: GGGAGUUCUACAGUCCGACGAUC … UGGAAUUCUCGGGUGUCAAGG
Sequence	log2 enrichment
GCAGGAAGUAAAAACAAAUGGAACUGCUUCGGAUAGUGGCAGGGGUGGGGGUUGCUAAGGAAAGGGUGGGAUGGGAGUGGGUAAAGAGUU	1.06
UUGCAGGAGCCGCCGCGCCUCGGCCUAGCAUGUCGGAAGCGGGCGAGGAGCAGCCCAUGGAGACGACGGGCGCCACCGAGAACGGACAUG	-0.261
UGGGAGGUGGAUUUUGUUUAUUUUUUUAGCUGAUUUCCAGGGGUGGGAAUUUUUUUUUAAUAUGUGUCAUGAAUAAAGUUGUUUUUGAAA	0.331
UCAAGUCCUGUGCUACACAUCGUAUGUACCGAAUCGGCCCGGGGCCCGGGCCCGGAAAGUAUUAUGUUACGCCGUUCGGAUCUGCACUUC	-1.19
AGUCCUGUGCUACACAUCGUAUGUACCGAAUCAAACCCAAAUUUUUAAAUUUUUAAAAAAGUAUUAUGUUACGCCGUUCGGAUCUGCACU	-0.392
AGUCCUGUGCUACACAUCGUAUGUACCGAAUCGGGUUUUUGGGUUUUUGGUUUUUGGGAAAGUAUUAUGUUACGCCGUUCGGAUCUGCAC	-1.16
CUCAAGUCCUGUGCUACACAUCGUAUGUACCGAAUCGGUUGGGGUUGGUUGGGAAAGUAUUAUGUUACGCCGUUCGGAUCUGCACUUCCA	-0.0658
AAGUCCUGUGCUACACAUCGUAUGUACCGAAUCGGGUUUUGGUUUUGGGGUUUUGGAAAGUAUUAUGUUACGCCGUUCGGAUCUGCACUU	-1.1

Block 2 — technique: RNA Bind-n-Seq; molecule type: RNA; matrix: in vitro; concentration: 20 nM; notes: 6-mer, flanks averaged, single round; with: 150 mM KCl; reference: input library; reading: higher = stronger binding
Target: TAR DNA-binding protein 43, full length, His tag (TARDBP, Homo sapiens, UniProt Q13148, residues 1-414)
Sequence	6-mer enrichment (R)
GGAUUC	0.791
AUCUCG	0.59
ACAACA	0.769
CUUUUU	0.774
CAUUAC	0.563
UCGGCC	0.804
UCUCAU	0.54
AGUACA	0.657

Block 3 — technique: aptamer microarray, sandwich; molecule type: DNA with 2'F-ANA; matrix: in vitro; concentration: 200 nM; with: Cy3 exosite-II aptamer, 400 nM; reading: higher = stronger binding; sequence: GGTTGGTGTGGTTGG
Target: Prothrombin, mature alpha-thrombin (F2, Homo sapiens, UniProt P00734)
Notes: whole 15-mer aptamer, many near background
Modification	mean fluorescence intensity
2'F-ANA at 1 2 8 9 10 12 14	214 a.u.
2'F-ANA at 1 2 4 5 6 9 10 11 12 14	53.5 a.u.
2'F-ANA at 2 3 6 9	698 a.u.
2'F-ANA at 3 7 8 9 11 15	1010 a.u.
2'F-ANA at 7 8 9 10 11 14	110 a.u.
2'F-ANA at 2 4 5 11 13 14	64 a.u.
2'F-ANA at 3 4 5 8 9 10 12 14	59.3 a.u.
2'F-ANA at 1 2 3 4 7 9 10 12 14	53.6 a.u.

Mixed results — starting sequence: viral docking peptide; KGVKRKLFAEDSS
Change	target	assay	system	conditions	how to read	endpoint	value
D11L	CCND2, cyclin fold, Cln2 fusion (human)	yeast growth competition, sequencing	yeast	weak parent motif	reference: not given, higher = stronger binding	normalised enrichment score	-0.215

For quick reference, copied from above (block 1):
Sequence	log2 enrichment
AGUCCUGUGCUACACAUCGUAUGUACCGAAUCGGGUUUUUGGGUUUUUGGUUUUUGGGAAAGUAUUAUGUUACGCCGUUCGGAUCUGCAC	-1.16
CUCAAGUCCUGUGCUACACAUCGUAUGUACCGAAUCGGUUGGGGUUGGUUGGGAAAGUAUUAUGUUACGCCGUUCGGAUCUGCACUUCCA	-0.0658
